Assay results collected from several papers.
Every numbered part comes from another study and shows a few of its results, in no order.

Sample 1 — technique: RNA Bind-n-Seq; form: RNA; medium: in vitro; concentration: 200 nM; setting: whole 134-nt RNA, ends assumed; added: 150 mM KCl; reference: input library; direction: higher = stronger binding
Target: Fragile X messenger ribonucleoprotein 1, C-terminal low-complexity region (Fmr1, Mus musculus, UniProt P35922)
Constant ends, left off below: GGGAGUUCUACAGUCCGACGAUC … UGGAAUUCUCGGGUGUCAAGG
Oligonucleotide | log2 enrichment
UCAAGUCCUGUGCUACACAUCGUAUGUACCGAAUCGGCCCGGGGCCCGGCCCGGAAAGUAUUAUGUUACGCCGUUCGGAUCUGCACUUCC | -0.285
AGUCCUGUGCUACACAUCGUAUGUACCGAAUCGGGGAGGGGAAAAAGGGGAAAGGGGAAAGUAUUAUGUUACGCCGUUCGGAUCUGCACU | 0.531
UCCUGUGCUACACAUCGUAUGUACCGAAUCAAAGUGUGUGUGUGUGUGUGUGUGUGAAAAAAGUAUUAUGUUACGCCGUUCGGAUCUGCA | 0.72
UCCUGUGCUACACAUCGUAUGUACCGAAUCGGGAAAAAGGGUUUUUGGGUUUUUUUGGGAAAGUAUUAUGUUACGCCGUUCGGAUCUGCA | -0.224
GCAGGAAGUAAAAACAAAUGGAAAUGCUUCGGAUAGUGGCAGGGGUGGGGGUUGCUAAGGAAAGGGUGGGAUGGGAGUGGGUCAAGAGUU | -0.0369
CUCAAGUCCUGUGCUACACAUCGUAUGUACCGAAUCGGGAGGGAGGGAAAGGGAAAGUAUUAUGUUACGCCGUUCGGAUCUGCACUUCCA | 1.07
CUGUGCUACACAUCGUAUGUACCGAAUCGGGGUUUUUUUGGGGAAAGGGGAAAAAAAGGGGAAAGUAUUAUGUUACGCCGUUCGGAUCUG | -0.429
UCCCUGAAUCACCGACUGGAGGAGAGUUACCUACAAGAGCCUUCAUCCAGGAGCAUCCACACUGCAAUGAUAUAGGAAUGAGGUCUGAAC | -0.0442
CUCAAGUCCUGUGCUACACAUCGUAUGUACCGAAUCGGGUUGGUUGGGUUGGGAAAGUAUUAUGUUACGCCGUUCGGAUCUGCACUUCCA | 1.09

Sample 2 — technique: universal PBM; form: double-stranded DNA, one strand shown; medium: in vitro; concentration: not given; direction: higher = stronger binding
Target: Sal-like protein 4, full length isoform B (SALL4, Homo sapiens, UniProt Q9UJQ4-2, residues 1-616)
Setting: 8-mer, flanks averaged, mean of replicates
Oligonucleotide | E-score
AGCCGTGG | -0.227
CAGCGCTG | -0.0855
CGATCAGC | -0.182
CAACCGTC | -0.261
CTGGCTGA | -0.29
AAGGTTCA | 0.0109
CACGTGCC | -0.128
GAAATGAC | 0.157
GCCATGGC | -0.215
AGAGAGCT | -0.188
TGTCCTAA | 0.0808
AAGTTCGG | -0.115
TGGGAGAA | 0.0139
CTCCGCTC | -0.136
ACAGAGTG | 0.0484
CATCGCCA | 0.0022
CGTCGGAA | 0.00649
ACACGGGT | -0.158
CATGCTCC | -0.128
GTCGACTA | 0.0853
CTGCCCCC | -0.22
CAGTGCCC | -0.292
CAATCCAG | -0.168
AGTCGTAG | -0.00407
GGAGGTAC | -0.185

Sample 3 — target: Sox-I, HMG box (Salpingoeca helianthica); technique: Spec-seq; form: double-stranded DNA, one strand shown; medium: in vitro; concentration: not given; setting: whole probe, mean of replicates; reference: not given; direction: lower = stronger binding; constant ends, left off below: GAGTCGTCTCGTCAGCAC … CCGTAGAGCACTCAGGTC
Construct (chain): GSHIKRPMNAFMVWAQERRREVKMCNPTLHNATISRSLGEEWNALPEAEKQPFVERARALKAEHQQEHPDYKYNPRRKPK
Oligonucleotide | relative binding energy [ln ratio]
CATTGTT | -2.71
CATAACC | 0.601
CATCCTC | 0.388
CATACTA | -0.0255
CATTGAT | -0.132
GATAGTT | 0.164
CATACGA | 0.696
CATCCCA | 0.63
CATCGGC | 1.14
GTCTGTT | -0.076
AGACGTT | 0.481
CATTGGC | 1.02
CATGTGT | 0.817
CCTCGTT | 0.169
GGTCGTT | 0.846
CGTTGTT | -1.83
AACTGTT | -1.25
ATTAGTT | -0.0878
CATGATT | 0.612
AGCAGTT | 0.0222
CAGTGTT | 0.169

Sample 4 — technique: RNA Bind-n-Seq; form: RNA; medium: in vitro; concentration: 365 nM; reference: no-protein control; direction: higher = stronger binding
Target: RNA binding protein fox-1 homolog 2, RRM domain, GST-SBP tag (RBFOX2, Homo sapiens, UniProt O43251-10, residues 100-194)
Setting: natural RNA segment, single round, ends assumed
Constant ends, left off below: GGGAGUUCUACAGUCCGACGAUC … UGGAAUUCUCGGGUGCCAA
Construct (chain): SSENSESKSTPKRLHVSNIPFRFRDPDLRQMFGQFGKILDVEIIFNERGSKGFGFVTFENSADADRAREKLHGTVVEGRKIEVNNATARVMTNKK
Oligonucleotide | RBNS enrichment (R)
CUGGUUUGGAGCUAGGCAGGCUGGCCAUGGGACAGAAAGGGCAGAAAAAAGAUGGAUUUCUGCUGUCUUUUGGCCCCUAGUUCCUUGGAAGGGCAAAGGCUAUGAGGUAG | 0.682
CACCUUAGUUACUUCAUUUGGCUCCGUUGGCUUGUGUUUCUAGGUGAGGAGUUUCCUACCAGUUCACUCCAGUGCCAUUGUCUUUAUAUGAACGUAGUGUAGAGAAGCUG | 0.404
UCAGGCAGUAGAAACAUUGCCAGAAGGAUAGAAAGGAAUUUGGAUUAUAUAUAAGGAAAAUAACAAAUCGGUGUUUUUAAGACUAUCACUGUCAUAUAUUAGAUCCUUGU | 0.37
GAGAGCAACGCUGAGCUGGGUCCCUAGCCUGGGCAGUGAUUGCCACUGCCACGUGGACCCCUAUGCGUGCGCAGAGGGCAGCGGGUAUGUGGCUUUGCAGGCCCGGCCCA | 0.631
GGUUGUCUGGCGCCCUUUUCCUCCAGCCUAAACUGACAUCAUCCUAUGGACUGAGCCGGCCACUCUCUGGCCGAAGUGGCCGCAGGCUGUGCCCCCGAGCUGCCCCCACC | 0.367
CUCCGACAUGAUCUACAUCCGCUGAAGAGUCUCGCUGUGGCCUCUGUCAGGGAUCCCUGGUGGAAGGGGAGGGGAGGGAGGAACCCAUAUAGUCAACUCUUGAUUAUCCA | 0.32
CCAAAAAUGAAUAUAGUUUCCUUUUUCAAAUCUGAAGGCAUGUGGGAAGCAGUGAGCAAAACCUGUGGUUAUUAACGGAAAAGUCUUUUAUUACAAAGUCAAUUAAAACU | 10.3
AGCAUGUGGGUAUUUGUCGACCAAAAUGAUGCCAAUUUGUAAAUUAAAAUGUCACCUAGUGGCCCUUUUCUUAUGUGUUUUUUUGUAUAAGAAAUUUUCUGUGAAAUAUC | 48.2

Excerpt of the above (sample 3):
Oligonucleotide | relative binding energy [ln ratio]
CATAACC | 0.601
CATCCTC | 0.388
CATACTA | -0.0255
CATTGAT | -0.132
